Published values from different studies.
Each numbered part is a random draw from the data of one study; scales do not carry over between parts.

Set 1
Target: Sal-like protein 4, full length isoform B (SALL4, Homo sapiens, UniProt Q9UJQ4-2, residues 1-616)
Technique: universal PBM
Molecule type: double-stranded DNA, one strand shown
Matrix: in vitro
Concentration: not given
Setting: 8-mer, flanks averaged, mean of replicates
Direction: higher = stronger binding
Sequence | E-score
GCGCTCCC | -0.256
AACGAGGA | -0.0261
GGGTTTCA | -0.0138
ACTTGAGC | -0.137
CGCCGACA | -0.189
CGGAAGTA | -0.062
AATTTCAT | 0.308
AAGTCCTG | -0.149
CGTTGGAC | -0.186
GCGTAGAC | -0.177
GATCGTGA | -0.00083
AAGCCATC | -0.0189
ACAAGACG | -0.0147
CCTTATTC | 0.113
AGTAGTCA | 0.0445
AAGTTTGT | 0.141
CGACACCG | -0.299
ACGGGTCC | -0.381
GATTTTGA | 0.183
GTGTTTCA | 0.101
GTCTCCAA | 0.144
GCGATTCC | -0.189
AATGAGCA | 0.099
AACGGCTA | -0.0124
AACTGGCG | -0.254

Set 2
Target: Histone acetyltransferase KAT6A, winged helix 1, GST fusion (KAT6A, Homo sapiens, UniProt Q92794, residues 1-85)
Technique: protein binding microarray
Molecule type: double-stranded DNA, one strand shown
Matrix: in vitro
Concentration: not given
Setting: 8-mer, flanks averaged, mean of 2 arrays, mostly near background
Relative to: not given
Direction: higher = stronger binding
Target sequence (chain): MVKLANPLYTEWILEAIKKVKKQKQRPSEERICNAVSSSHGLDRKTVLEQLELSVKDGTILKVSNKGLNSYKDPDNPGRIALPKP
Sequence | E-score
ATCACACG | 0.0134
CCTCTCGA | -0.0519
AGTCGGAG | -0.106
CCATAAGA | -0.0486
GAGGGCCC | -0.071
CAGTCAGC | 0.0576
ATGAGGTG | -0.266
GTACCCCA | -0.162
GACCTGAC | -0.298
ATCGTCAT | -0.0875
ATTCACGA | -0.305
ACGCAGGA | -0.0966
CTAAGGTA | 0.00288
ACAGTCCG | -0.0488
CAGTAACA | 0.0523
ACGGTAAT | 0.154
CAAGTGAC | -0.202

Set 3
Target: RING finger protein unkempt homolog, zinc fingers 1-6, GST-SBP tag (UNK, Homo sapiens, UniProt Q9C0B0, residues 30-357)
UniProt Q9C0B0, sequence (30-357, looked up): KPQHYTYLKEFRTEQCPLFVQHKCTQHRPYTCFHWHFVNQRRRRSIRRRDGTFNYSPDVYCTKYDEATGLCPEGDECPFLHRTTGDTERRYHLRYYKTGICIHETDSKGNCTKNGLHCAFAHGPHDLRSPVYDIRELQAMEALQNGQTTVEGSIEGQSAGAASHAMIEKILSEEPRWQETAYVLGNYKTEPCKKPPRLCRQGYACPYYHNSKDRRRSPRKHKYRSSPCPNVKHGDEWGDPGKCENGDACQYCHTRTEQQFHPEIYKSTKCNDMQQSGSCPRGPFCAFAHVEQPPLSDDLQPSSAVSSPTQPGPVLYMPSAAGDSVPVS
Technique: RNA Bind-n-Seq
Molecule type: RNA
Matrix: in vitro
Concentration: not given
Setting: RNA with constant flanks, ends assumed
Relative to: input RNA pool
Direction: higher = stronger binding
Sequence | bound/input enrichment [ratio]
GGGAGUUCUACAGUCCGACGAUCAAAAGCACAAGUGUUCGAACUUCAACUUUUUACUCCAGACUGAGGCUACCCAGGGACAGACUCCGUGGCAGCAGGGUUGCAUCAGCACUGGUCACUCCAGUCCAGCCUGUGUGUAAAAUCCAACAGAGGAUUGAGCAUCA | 0.0922
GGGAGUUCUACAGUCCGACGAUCUCAGAUAACCUUACCCGGGCUUGUAGCCUAGUGCGGGAGGCAGCAAAGCAAGGUGCCAACACCGUUUCUCUGCCUGAGUGCUUCAAUUCUCCAUAUGGAACAACCUACUUUCCUGACUAUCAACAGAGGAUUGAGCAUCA | 0.13
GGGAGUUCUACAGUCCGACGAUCCGCCUGGAUGAGGCUGGUGUUACUGAUGAAGUGCUGGAUUCUGCCAUGCAAGCCUUCUUACCCGAAAUUAUCGUUAAGCAUGGGGAGCCAGCCCCUUAUUUAUGUAAUAAAGAUCCUUUUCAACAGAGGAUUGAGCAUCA | 0.204
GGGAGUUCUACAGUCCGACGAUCAGACAUUUAUUCUUUCUUGGACCUCAGAUUUACCAGACAUCUCAUGGGUUUGUGGAUGCACUCCGAUGUUUGCAAUGAGCACUGUGGCUGGCAUGCCCCAGUGUUUUGGAUACCAAUGCACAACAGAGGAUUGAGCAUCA | 0.352
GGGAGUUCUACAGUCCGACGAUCUUUUUUGGGGGUGGAUUUCCUUCAGGUAGUGUACAUUCUUUUUCAAAUGGAAGAGCUGGUUACCGCCAACAACAUCAGCAUCGACAUAGUGGACAUGAAAGAGAAGAGGAAAGAGGAGAUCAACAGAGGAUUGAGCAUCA | 0.721
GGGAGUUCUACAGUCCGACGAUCUACAGAUAGUACCAUUAAGAUGAGUUUUCAGGGGUCUAGGGAAGUUAAGGGUGGGAGGGUAUCCGGUAAGGGAGAUAGACGUUUAGAGAUGUGUUAAGUUAGAAAUCAGAUUGAUGCAAGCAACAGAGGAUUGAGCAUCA | 37.6
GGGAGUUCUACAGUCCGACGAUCUUUAUUUUUAUUUUUAUUUUAUUUAUUUAAAAAUCUUGAUCUUUUUUACUUGUUUCAUCACACCGCUCAGAGUAGGUCCUCAGAAAUUGUUCAUGAUUUUUAAAACAAAGGCCUUGGGCACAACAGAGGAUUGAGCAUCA | 3.72
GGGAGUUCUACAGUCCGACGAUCUCCUCACUGGAAAACAUGCUUUUGUUUAACAGUCCUUCUGUUGGCCCUGAUGCUCCCAAGACCGAGGACUUGAAGUGGCAUUCUGCAUUCUUCAGAAAACAAAUGGGUACUUCCUUGGUUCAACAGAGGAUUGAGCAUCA | 0.161
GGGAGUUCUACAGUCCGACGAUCGAGACGGUGGAGGAAGAGAAGAGCCAGUCAGAUGUGGAUUUUCAGUCGUGCGAGUCUUGCCGCAGCAGCGAGAAAGCAGAAAAUGAGAGUGGCUCCAAAGGCUUUCCUGAGGACAGCAAUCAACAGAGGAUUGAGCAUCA | 0.232
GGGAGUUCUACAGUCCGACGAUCUUUGAAGAAGGUGUGGGGAAACCUGCCAAGCAACUCCAAGAUCUGAGGAAUGCAUCCCGACUUAUUCGUGUGAAUCCUGAAAGUACAACAUCAGUGGUCUAAUGCUUGGGUCUGUUUAUACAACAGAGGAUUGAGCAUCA | 0.0645
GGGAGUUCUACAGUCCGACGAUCAAUGCAGUAGAAGCCAUCCACAGAGCUGUGGAAUUUAAUCCACACGUGCCAAAAUAUCUACCCGAAAUGAAAAGCUUAAUCCUCCCACCAGAACACAUCCUGAAGAGAGGAGACAGUGAACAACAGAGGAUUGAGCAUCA | 0.507

Set 4
Target: RNA binding protein fox-1 homolog 2, RRM domain, GST-SBP tag (RBFOX2, Homo sapiens, UniProt O43251-10, residues 100-194)
Technique: RNA Bind-n-Seq
Molecule type: RNA
Matrix: in vitro
Concentration: 365 nM
Setting: natural RNA segment, single round, ends assumed
Relative to: no-protein control
Direction: higher = stronger binding
Construct (chain): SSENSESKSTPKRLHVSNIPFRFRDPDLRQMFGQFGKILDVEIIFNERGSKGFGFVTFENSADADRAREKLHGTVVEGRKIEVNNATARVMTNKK
Sequence | RBNS enrichment (R)
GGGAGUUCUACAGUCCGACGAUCCUGGAAAUCACUGCCACAGUACAGGCUGUGACUGCAGAUGCCAAAAUGAUUAGGAUGCCACAGAUGGUACAUCUAGUGGUCCAGAUAGGAUCCCUCCUGAAAUCUCCUACUGGAAUUCUCGGGUGCCAA | 0.245
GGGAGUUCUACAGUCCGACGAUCGGUAUUUUAAAGUUUAUGAUGAAGUAUUCUUUUUAUAUUCUUAAAUAUAAACUUGGAAAGGCAUUUAGCCUUGAUUUGUUAAAUCCUAAGGAUUUCCUGUAAGGUUUUUUUGGAAUUCUCGGGUGCCAA | 0.86
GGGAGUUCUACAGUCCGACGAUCAUUGCAUCAGUUUUCCUGUUUGCACUAUUUCUUUUUGUAACAUUGGCCCUGUGUGAAGUAUUUCGAAUCUCCUCCUUGCUCUGAAACUUCAGCGAUUCCAUUGUGAUAAGUGGAAUUCUCGGGUGCCAA | 0.411
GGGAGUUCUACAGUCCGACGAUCCAUGGUCUUCGAUGUGGUUUUCAUUUACUGGUCAGGGGGCACCUCCCUGUAUUAGAAAUCUUGGAGGAAAGUCCCCAACUCCGUUCUGUCCCUUUCUUGUUCUUAGACACUGGAAUUCUCGGGUGCCAA | 0.306
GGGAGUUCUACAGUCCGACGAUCUACAAUAAACAUUUGAAGGCAGCAUAGGAUGGCAGACAGUAGGAACAUUGUUUCACUUGGCGGCAUGUUUUUGAAACCUGCUUUAUAGUAACUGGGUGAUUGCCAUUGUGUGGAAUUCUCGGGUGCCAA | 0.741
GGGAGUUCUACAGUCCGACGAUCUACACACUUACCUGUCUCAGACUCACAUGUACUAUCAUCUGAUGUACUCUGAUUGGCUAGUUUGGGUUCAUUUUUACUGUAUAUUUAUAGUAAUAAAAUCAUGCAGCAAUUGGAAUUCUCGGGUGCCAA | 0.244
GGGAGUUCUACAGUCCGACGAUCCUUCUUCCUCAGUGGAGAUACCACACAUGAGUGGAGAGAUACGUUAGAUAGCUUUGGUAAAUAUCUUUAAUAGAGGUGACUAUUGAACUGUUGAAUCUUGCAUUUGCACAUGGAAUUCUCGGGUGCCAA | 0.796
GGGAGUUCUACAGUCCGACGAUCCUAAAAGAUUAUUUAAUUCCAGAUUGGAAAUGACAUUUUAGUUUAUCAGAUUGGUAACUUAUCGCCUGUUGUCCAGAUUGGCACGAACCUUUUCUUCCACUUAAUUAUUUUGGAAUUCUCGGGUGCCAA | 0.551
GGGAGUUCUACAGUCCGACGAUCAUAUCAGUUAUAGACAAAGGCCAUGGGACUAUGCUAAACCAAUAAAACCUUAUUAGCAAAUCUUUAGAUUCUGACUUAGCCAGAGCAUCUGAGUGUUCAAGUACAGUUUUUGGAAUUCUCGGGUGCCAA | 0.621
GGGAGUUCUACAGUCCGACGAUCGCCUCUCCUUAGAGGCCUUCACAAGAAGCAUAGACACUGUCCCUGACGGUAAUUAGAAGAAGCAGAGGCUCACACAUCUCCUGGCACGGUCUUAUCUCCCUCGUGUGUUGUGGAAUUCUCGGGUGCCAA | 0.401
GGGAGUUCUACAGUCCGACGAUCUGACCGUGGCUGGCGGUCACGCCCUCAGCCCCUCCGGGCACACGUGCCGCCUGACCGGGCGACCCUUUUCAGUUCGGCAAACGUCGCUCCCUUCAUUUUGGGACUGAGGCUGGAAUUCUCGGGUGCCAA | 0.265
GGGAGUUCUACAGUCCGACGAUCCCCCAACUAAGGUCUGUGUCGCCUUCUUGUAAAUGUUGUAUAUGUUGUAUUUUGUUGGUAAUUAUUUUGGUACUUCUAAGAUGUAUAUUUAUUAAACAGAUUUUUACAGAUGGAAUUCUCGGGUGCCAA | 0.948
